Measurements from different studies.
Each line is one published result; not all experiments were run side by side. ± marks the error that the study gave.
Cell line: HEK-293T

SMILES | test | setting | how to read | quantity | result
CC(C)Cc1ccc([C@@H](C)[C@@H](O)CC(C)C)cc1 (racemic) |  | 250 µM, 48 h |  | cells killed | 95%
O=c1[nH]nc(OCCCc2ccc(Cl)cc2)c(NCc2cccnc2)c1Br | RNA-seq GSEA, item: HALLMARK_HYPOXIA | concentration not given | direction not given | normalized enrichment score | 1.67
O=C(Nc1ccc(-c2ccccc2)cc1)c1cnn(-c2ccc([N+](=O)[O-])cc2)c1C(F)(F)F | cell viability, MTS | 50 µM, 72 h |  | inhibition | 13.3 ± 2%
CCc1cnc(N2CCC(c3nc(COc4ccc(-n5cnnn5)cc4)cs3)CC2)nc1 | RNA-seq GSEA, item: HALLMARK_MYC_TARGETS_V1 | concentration not given | direction not given | normalized enrichment score | -2.17
Cc1cc(C)nc(SCC(=O)Nc2ncc(Cc3cccc(OCc4cn(Cc5ccc(OCCN6CCOCC6)cc5)nn4)c3)s2)n1 | cell viability, MTS | 10 µM |  | inhibition | 63 ± 6.5%
C=C(C)C(=O)[O-].[Na+] | TMT mass spectrometry | 20 mM, 24 h, ratio cutoff 1.2 |  | methacrylated protein count | 254
COc1cc(NC(=O)c2cnn(-c3ccc([N+](=O)[O-])cc3)c2C(F)(F)F)cc(OC)c1OC | cell viability, MTS | 50 µM, 72 h |  | inhibition | 10.6 ± 1.89%
CCCCCCCCCCCCCCCC(=O)N[C@@H](CC(=O)O)C(=O)N[C@H]1CNC(=O)[C@@H]2CCCN2C(=O)[C@H]([C@@H](C)CC)NC(=O)[C@@H]([C@@H](C)O)NC(=O)CNC(=O)[C@H](CC(=O)O)NC(=O)CNC(=O)[C@H](CC(=O)O)NC(=O)CNC(=O)[C@H]2CCCCN2C1=O | cytotoxicity, MTT |  |  | IC50 | 49 µg/mL
COCCn1cc(COc2cccc(Cc3cnc(NC(=O)CSc4nc(-c5ccccc5)cc(-c5ccccc5)n4)s3)c2)nn1 | cell viability, MTS | 10 µM |  | inhibition | 11.6 ± 1.6%
Cc1c2c(nn1C)CSCc1cc(n(C)n1)CSc1cc(c3ccccc3c1)OCCCc1c(C(=O)O)n(C)c3c-2c(Cl)ccc13 | cytotoxicity, CCK-8 |  |  | IC50 | 25 µM
C=C1C[C@](OC)([C@H](OCOC/C=C/B2OC(CC)(CC)C(CC)(CC)O2)C(=O)NC[C@@H]2C[C@@H](OC)C(C)(C)[C@@H](C[C@@H](COC)OC)O2)O[C@H](C)[C@@H]1C | cell viability, sulforhodamine B | 48 h, 37 °C, without H2O2 |  | IC50 | 0.405 ± 0.072 µM

For quick reference, copied from above:
SMILES | test | setting | how to read | quantity | result
O=c1[nH]nc(OCCCc2ccc(Cl)cc2)c(NCc2cccnc2)c1Br | RNA-seq GSEA, item: HALLMARK_HYPOXIA | concentration not given | direction not given | normalized enrichment score | 1.67
O=C(Nc1ccc(-c2ccccc2)cc1)c1cnn(-c2ccc([N+](=O)[O-])cc2)c1C(F)(F)F | cell viability, MTS | 50 µM, 72 h |  | inhibition | 13.3 ± 2%
